{"data": "Measured values pooled from the literature", "note": "Every numbered part comes from another study and shows a few of its results, in no order.", "sequence of UniProt P10721 (whole entry, unmodified, looked up)": "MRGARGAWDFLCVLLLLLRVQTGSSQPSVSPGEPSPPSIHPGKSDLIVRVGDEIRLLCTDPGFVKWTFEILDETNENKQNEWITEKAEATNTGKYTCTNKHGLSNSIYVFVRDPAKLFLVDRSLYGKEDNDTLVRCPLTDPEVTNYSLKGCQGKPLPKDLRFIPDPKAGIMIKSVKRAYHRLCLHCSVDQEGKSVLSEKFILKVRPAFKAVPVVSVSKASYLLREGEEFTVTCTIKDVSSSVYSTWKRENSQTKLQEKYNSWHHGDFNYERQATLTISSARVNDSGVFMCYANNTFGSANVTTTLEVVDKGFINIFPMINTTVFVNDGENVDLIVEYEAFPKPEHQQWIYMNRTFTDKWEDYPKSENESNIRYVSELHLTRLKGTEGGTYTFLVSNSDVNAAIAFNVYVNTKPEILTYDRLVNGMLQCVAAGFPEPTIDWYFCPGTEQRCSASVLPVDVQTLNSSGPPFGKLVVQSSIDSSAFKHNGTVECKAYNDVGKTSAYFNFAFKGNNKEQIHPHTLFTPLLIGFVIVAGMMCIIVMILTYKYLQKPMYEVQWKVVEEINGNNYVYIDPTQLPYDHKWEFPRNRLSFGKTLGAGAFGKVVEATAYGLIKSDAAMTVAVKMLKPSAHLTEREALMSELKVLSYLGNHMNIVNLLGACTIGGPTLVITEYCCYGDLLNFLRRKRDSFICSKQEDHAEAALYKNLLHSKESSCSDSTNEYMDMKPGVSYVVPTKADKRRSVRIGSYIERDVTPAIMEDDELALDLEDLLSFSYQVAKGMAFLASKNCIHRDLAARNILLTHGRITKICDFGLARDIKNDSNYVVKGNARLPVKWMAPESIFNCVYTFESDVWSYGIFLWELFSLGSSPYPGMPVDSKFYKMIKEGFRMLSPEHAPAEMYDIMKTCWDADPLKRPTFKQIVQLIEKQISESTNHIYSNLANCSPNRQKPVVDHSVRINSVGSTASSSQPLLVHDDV", "sequence of UniProt O94806 (whole entry, looked up)": "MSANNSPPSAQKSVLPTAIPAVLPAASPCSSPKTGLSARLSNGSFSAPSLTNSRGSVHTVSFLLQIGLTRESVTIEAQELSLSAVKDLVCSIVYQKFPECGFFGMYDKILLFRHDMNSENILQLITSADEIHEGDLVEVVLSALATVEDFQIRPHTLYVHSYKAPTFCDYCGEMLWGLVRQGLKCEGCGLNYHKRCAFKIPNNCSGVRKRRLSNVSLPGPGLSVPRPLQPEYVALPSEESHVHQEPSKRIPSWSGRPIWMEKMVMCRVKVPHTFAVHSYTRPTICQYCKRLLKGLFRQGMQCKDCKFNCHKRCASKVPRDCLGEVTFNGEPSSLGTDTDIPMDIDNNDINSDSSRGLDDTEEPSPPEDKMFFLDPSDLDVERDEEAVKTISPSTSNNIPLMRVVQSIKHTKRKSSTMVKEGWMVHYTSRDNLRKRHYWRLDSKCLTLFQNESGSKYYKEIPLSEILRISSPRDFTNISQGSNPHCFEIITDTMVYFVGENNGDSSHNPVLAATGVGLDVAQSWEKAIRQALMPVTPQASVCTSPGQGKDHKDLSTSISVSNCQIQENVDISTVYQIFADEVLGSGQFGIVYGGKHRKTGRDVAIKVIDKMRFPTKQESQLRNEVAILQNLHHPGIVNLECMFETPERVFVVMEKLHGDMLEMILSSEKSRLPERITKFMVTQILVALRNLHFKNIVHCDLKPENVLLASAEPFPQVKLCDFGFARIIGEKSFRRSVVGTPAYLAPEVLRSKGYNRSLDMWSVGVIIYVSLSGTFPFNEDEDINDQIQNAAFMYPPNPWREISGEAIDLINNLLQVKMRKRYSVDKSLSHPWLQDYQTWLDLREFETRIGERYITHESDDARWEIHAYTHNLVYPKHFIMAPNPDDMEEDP", "sequence of UniProt Q96J92 (whole entry, looked up)": "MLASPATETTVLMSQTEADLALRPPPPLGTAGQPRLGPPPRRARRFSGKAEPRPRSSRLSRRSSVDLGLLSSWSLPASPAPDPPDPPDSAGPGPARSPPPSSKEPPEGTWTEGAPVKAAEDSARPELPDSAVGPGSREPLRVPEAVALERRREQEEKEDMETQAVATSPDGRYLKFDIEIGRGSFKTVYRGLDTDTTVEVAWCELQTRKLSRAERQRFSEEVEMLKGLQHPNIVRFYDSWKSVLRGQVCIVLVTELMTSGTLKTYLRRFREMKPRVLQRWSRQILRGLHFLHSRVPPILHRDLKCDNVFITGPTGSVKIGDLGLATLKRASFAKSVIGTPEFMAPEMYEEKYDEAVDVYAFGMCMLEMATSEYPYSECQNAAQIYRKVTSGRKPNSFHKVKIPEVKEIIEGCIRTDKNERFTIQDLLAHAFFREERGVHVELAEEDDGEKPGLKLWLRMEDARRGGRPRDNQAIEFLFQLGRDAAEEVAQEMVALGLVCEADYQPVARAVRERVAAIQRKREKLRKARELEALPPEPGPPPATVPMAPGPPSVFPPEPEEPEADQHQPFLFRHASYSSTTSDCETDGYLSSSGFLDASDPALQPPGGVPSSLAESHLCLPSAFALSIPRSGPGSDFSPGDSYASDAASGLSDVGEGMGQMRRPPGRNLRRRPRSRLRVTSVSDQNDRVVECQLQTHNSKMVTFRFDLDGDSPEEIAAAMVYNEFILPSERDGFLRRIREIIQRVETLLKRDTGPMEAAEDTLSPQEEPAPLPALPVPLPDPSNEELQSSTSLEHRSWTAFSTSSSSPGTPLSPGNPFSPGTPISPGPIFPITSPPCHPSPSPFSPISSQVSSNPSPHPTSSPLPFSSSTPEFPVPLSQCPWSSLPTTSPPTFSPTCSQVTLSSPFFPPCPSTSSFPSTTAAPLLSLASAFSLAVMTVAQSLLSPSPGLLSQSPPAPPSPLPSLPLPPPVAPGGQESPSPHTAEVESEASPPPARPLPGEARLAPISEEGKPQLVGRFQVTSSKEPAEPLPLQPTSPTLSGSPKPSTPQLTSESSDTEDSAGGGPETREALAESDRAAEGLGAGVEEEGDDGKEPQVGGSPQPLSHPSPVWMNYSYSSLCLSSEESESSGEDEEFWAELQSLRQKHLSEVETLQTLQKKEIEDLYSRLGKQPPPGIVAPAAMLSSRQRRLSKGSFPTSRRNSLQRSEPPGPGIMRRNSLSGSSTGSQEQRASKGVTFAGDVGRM", "sequence of UniProt P14616 (whole entry, looked up)": "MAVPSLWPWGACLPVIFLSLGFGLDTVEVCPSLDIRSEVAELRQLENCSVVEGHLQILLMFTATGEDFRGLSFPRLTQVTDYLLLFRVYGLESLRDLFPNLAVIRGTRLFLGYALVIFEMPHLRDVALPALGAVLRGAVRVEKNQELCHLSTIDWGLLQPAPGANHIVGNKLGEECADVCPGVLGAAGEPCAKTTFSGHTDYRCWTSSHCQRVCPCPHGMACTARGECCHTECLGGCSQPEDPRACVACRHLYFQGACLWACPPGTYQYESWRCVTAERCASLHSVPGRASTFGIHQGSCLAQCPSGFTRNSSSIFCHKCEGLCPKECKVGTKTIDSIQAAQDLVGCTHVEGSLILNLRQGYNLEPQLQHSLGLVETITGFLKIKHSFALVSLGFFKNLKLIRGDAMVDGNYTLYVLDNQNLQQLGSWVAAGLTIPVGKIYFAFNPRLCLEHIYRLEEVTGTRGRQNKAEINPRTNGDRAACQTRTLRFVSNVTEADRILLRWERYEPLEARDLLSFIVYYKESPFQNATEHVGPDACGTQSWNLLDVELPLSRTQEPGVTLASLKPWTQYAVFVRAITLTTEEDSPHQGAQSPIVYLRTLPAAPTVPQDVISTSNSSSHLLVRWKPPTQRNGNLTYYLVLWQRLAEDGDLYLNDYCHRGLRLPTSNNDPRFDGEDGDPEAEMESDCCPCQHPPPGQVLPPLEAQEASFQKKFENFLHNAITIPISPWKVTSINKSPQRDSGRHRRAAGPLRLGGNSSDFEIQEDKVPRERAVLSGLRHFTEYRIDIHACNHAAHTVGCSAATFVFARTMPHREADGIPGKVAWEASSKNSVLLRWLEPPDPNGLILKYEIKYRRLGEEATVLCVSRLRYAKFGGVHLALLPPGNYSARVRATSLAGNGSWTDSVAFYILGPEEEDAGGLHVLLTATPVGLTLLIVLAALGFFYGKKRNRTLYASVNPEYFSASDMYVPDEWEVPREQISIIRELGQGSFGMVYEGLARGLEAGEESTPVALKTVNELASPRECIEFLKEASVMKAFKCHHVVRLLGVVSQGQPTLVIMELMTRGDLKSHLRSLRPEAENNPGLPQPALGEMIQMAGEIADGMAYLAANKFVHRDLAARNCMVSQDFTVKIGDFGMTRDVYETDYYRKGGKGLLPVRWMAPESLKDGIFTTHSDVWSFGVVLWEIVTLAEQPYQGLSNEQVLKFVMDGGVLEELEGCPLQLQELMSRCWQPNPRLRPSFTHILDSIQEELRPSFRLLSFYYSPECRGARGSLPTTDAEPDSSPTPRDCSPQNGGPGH", "sequence of UniProt Q9BXA7 (whole entry, looked up)": "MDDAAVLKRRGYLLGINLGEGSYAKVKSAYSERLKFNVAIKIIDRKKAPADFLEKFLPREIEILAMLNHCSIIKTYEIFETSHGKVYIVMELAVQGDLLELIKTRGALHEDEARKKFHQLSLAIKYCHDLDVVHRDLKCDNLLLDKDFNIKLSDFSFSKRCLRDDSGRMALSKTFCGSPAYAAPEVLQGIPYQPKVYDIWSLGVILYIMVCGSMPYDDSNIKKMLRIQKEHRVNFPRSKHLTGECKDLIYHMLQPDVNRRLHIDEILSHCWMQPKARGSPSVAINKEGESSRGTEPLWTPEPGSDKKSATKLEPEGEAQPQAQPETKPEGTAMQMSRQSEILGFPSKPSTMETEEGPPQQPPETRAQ"}
{"data": "Sample 1", "target": "Serine/threonine-protein kinase Nek2 (NEK2, Homo sapiens, UniProt P51955)", "read-out": "enzyme activity", "action": "inhibitor", "tested at": "0.5 µM", "relative to": "control", "Residues (P51955 1-445)": "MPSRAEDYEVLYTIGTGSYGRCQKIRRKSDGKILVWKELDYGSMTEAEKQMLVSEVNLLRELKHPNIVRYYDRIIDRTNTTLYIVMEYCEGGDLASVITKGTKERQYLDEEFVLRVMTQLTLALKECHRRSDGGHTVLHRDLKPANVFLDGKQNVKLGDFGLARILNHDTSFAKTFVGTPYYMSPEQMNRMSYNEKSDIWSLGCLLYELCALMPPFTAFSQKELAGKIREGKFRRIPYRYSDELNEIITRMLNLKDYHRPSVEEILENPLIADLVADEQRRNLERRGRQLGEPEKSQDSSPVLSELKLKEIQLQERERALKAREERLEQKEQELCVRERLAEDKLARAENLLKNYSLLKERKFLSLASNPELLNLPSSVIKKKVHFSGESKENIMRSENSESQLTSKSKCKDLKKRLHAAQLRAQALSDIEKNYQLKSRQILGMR"}
{"SMILES": "NC(=O)c1ccc(-c2nc(-c3ccc4c(c3)OCCO4)c(-c3ccccn3)[nH]2)cc1", "remaining activity": "105%"}
{"SMILES": "CCN(CC)CCCCN1c2ccccc2Oc2ccc(Cl)cc21", "remaining activity": "101%"}
{"SMILES": "NC(=O)c1cccc(-c2cc(Nc3ccc(OC(F)(F)F)cc3)ncn2)c1", "remaining activity": "95.6%"}
{"SMILES": "c1cc(-c2cnn3cc(-c4ccc(OCCN5CCCCC5)cc4)cnc23)ccn1", "remaining activity": "102%"}
{"SMILES": "O=C(O)/C=C/c1cc(Br)c(Br)c(Br)c1Br", "remaining activity": "92%"}
{"SMILES": "COc1cc2c(Nc3ccc(Br)cc3F)ncnc2cc1OCC1CCN(C)CC1", "remaining activity": "103%"}
{"SMILES": "CC(C)n1cnc2c(Nc3cccc(Cl)c3)nc(NCCO)nc21", "remaining activity": "97.6%"}
{"SMILES": "O=c1c(-c2ccc(F)cc2)c(-c2ccncc2)[nH]n1-c1ccc(Cl)cc1", "remaining activity": "85.4%"}
{"SMILES": "N#C/C(=C(/N)SC1C=CC=CC1)c1cccc(C(O)c2ccncc2)c1 (centres unmarked)", "remaining activity": "87.7%"}
{"SMILES": "O=C1NC(=O)/C(=C/c2ccc3c(c2)OC(F)(F)O3)S1", "remaining activity": "98.9%"}
{"SMILES": "O=C(c1ccccc1)c1ccc(N2CCOCC2)cc1O", "remaining activity": "101%"}
{"SMILES": "C[C@@H](N)[C@H]1CC[C@H](C(=O)Nc2ccncc2)CC1", "remaining activity": "88.7%"}
{"SMILES": "CNc1cc2c(Nc3cccc(Br)c3)ncnc2cn1", "remaining activity": "88.2%"}
{"SMILES": "N#CC(c1ccnc(NCCc2cccnc2)n1)c1nc2ccccc2s1 (centres unmarked)", "remaining activity": "87.8%"}
{"SMILES": "FC(F)(F)c1ccc(/C=C/c2nc(COc3ccc(CCCCn4ccnn4)cc3)co2)cc1", "remaining activity": "96.2%"}
{"SMILES": "CC(C)N(CCC(=O)c1ccc2ccccc2c1)Cc1ccccc1", "remaining activity": "86.9%"}
{"SMILES": "O=Nc1c(-c2c(O)[nH]c3ccccc23)[nH]c2ccccc12", "remaining activity": "109%"}
{"SMILES": "Nc1nc(Nc2ccc(S(N)(=O)=O)cc2)nn1C(=S)Nc1c(F)cccc1F", "remaining activity": "98.3%"}
{"SMILES": "O=C1c2ccccc2-c2nc3nnnn3nc21", "remaining activity": "77.7%"}
{"SMILES": "COc1cc2c(N3CCN(C(=O)Nc4ccc(OC(C)C)cc4)CC3)ncnc2cc1OCCCN1CCCCC1", "remaining activity": "101%"}
{"data": "Sample 2", "SMILES": "CC(C)n1cnc(-c2ccc(F)cc2)c1-c1ncc(C(=O)Nc2ccc(N3CCN(C)CC3)cc2)[nH]1", "technique": "phase 2a trial", "host": "idiopathic pulmonary fibrosis patients"}
{"setting": "all arms, grade 4 emergent event", "patients with nausea [%]": 0}
{"setting": "30 mg once daily, grade 3 emergent event", "patients with nausea [%]": 0}
{"setting": "all arms, grade 1 emergent event", "patients with nausea [%]": 0}
{"setting": "all arms, grade 5 emergent event", "patients with nausea [%]": 0}
{"setting": "30 mg once daily, grade 2 emergent event", "patients with nausea [%]": 0}
{"setting": "60 mg once daily, grade 1 emergent event", "patients with nausea [%]": 0}
{"setting": "60 mg once daily, grade 4 emergent event", "patients with nausea [%]": 0}
{"setting": "60 mg once daily, grade 3 emergent event", "patients with nausea [%]": 0}
{"setting": "60 mg once daily, grade 5 emergent event", "patients with nausea [%]": 0}
{"data": "Sample 3", "cell line": "HuT78", "tested at": "2 µM", "time": "48 h", "relative to": "untreated"}
{"Compound": "CO[C@H]1C[C@@H]2CC[C@@H](C)[C@@](O)(O2)C(=O)C(=O)N2CCCC[C@H]2C(=O)O[C@H]([C@H](C)C[C@@H]2CC[C@@H](OP(C)(C)=O)[C@H](OC)C2)CC(=O)[C@H](C)/C=C(\\C)[C@@H](O)[C@@H](OC)C(=O)[C@H](C)C[C@H](C)/C=C/C=C/C=C/1C", "viability [%]": 98}
{"Compound": "Cc1cn(-c2cc(NC(=O)c3ccc(C)c(Nc4nccc(-c5cccnc5)n4)c3)cc(C(F)(F)F)c2)cn1", "viability [%]": 125}
{"Compound": "CO[C@H]1C[C@@H]2CC[C@@H](C)[C@@](O)(O2)C(=O)C(=O)N2CCCC[C@H]2C(=O)O[C@H]([C@H](C)C[C@@H]2CC[C@@H](OC(=O)C(C)(CO)CO)[C@H](OC)C2)CC(=O)[C@H](C)/C=C(\\C)[C@@H](O)[C@@H](OC)C(=O)[C@H](C)C[C@H](C)/C=C/C=C/C=C/1C", "viability [%]": 91.6}
{"Compound": "CCc1cnn2c(NCc3ccc[n+]([O-])c3)cc(N3CCCC[C@H]3CCO)nc12", "viability [%]": 8.12}
{"Compound": "Cn1ncc(Cl)c1-c1cc(C(=O)N[C@H](CN)Cc2ccc(F)c(F)c2)oc1Cl", "viability [%]": 107}
{"Compound": "CO[C@H]1C[C@@H]2CC[C@@H](C)[C@@](O)(O2)C(=O)C(=O)N2CCCC[C@H]2C(=O)O[C@H]([C@H](C)C[C@@H]2CC[C@@H](OCCO)[C@H](OC)C2)CC(=O)[C@H](C)/C=C(\\C)[C@@H](O)[C@@H](OC)C(=O)[C@H](C)C[C@H](C)/C=C/C=C/C=C/1C", "viability [%]": 57.5}
{"Compound": "CCn1c(N)c(C(=O)NC)c(=O)c2ccc(C#C[C@@](C)(O)COC)nc21", "viability [%]": 96.2}
{"Compound": "Oc1c(F)cc(-c2cnccc2-c2ccc(N3CCOCC3)cc2)cc1F", "viability [%]": 105}
{"Compound": "CN(C)Cc1cccc(N=C(c2ccccc2)c2c(O)[nH]c3cc(C(=O)N(C)C)ccc23)c1", "viability [%]": 125}
{"data": "Sample 4", "SMILES": "Nc1c(C(=O)NCc2ccc(C(=O)NCCCC3CCCCC3)cc2)cnn1-c1ccccc1", "read-out": "cell-free assay", "technique": "competition with immobilised ligand", "tested at": "0.1 µM"}
{"target": "Uncharacterized serine/threonine-protein kinase SBK3 (SBK3, Homo sapiens, UniProt P0C264)", "remaining binding [%]": 87}
{"target": "Interleukin-1 receptor-associated kinase 1 (IRAK1, Homo sapiens, UniProt P51617)", "remaining binding [%]": 86}
{"target": "Serine/threonine-protein kinase OSR1 (OXSR1, Homo sapiens, UniProt O95747)", "remaining binding [%]": 100}
{"target": "Tyrosine-protein kinase ITK/TSK (ITK, Homo sapiens, UniProt Q08881)", "remaining binding [%]": 93}
{"target": "Tyrosine-protein kinase Mer (MERTK, Homo sapiens, UniProt Q12866)", "remaining binding [%]": 100}
{"target": "Hepatocyte growth factor receptor (MET, Homo sapiens, UniProt P08581)", "remaining binding [%]": 95}
{"target": "Activated CDC42 kinase 1 (TNK2, Homo sapiens, UniProt Q07912)", "remaining binding [%]": 89}
{"target": "Aurora kinase B (AURKB, Homo sapiens, UniProt Q96GD4)", "remaining binding [%]": 81}
{"target": "Insulin receptor-related protein (INSRR, Homo sapiens, UniProt P14616)", "remaining binding [%]": 100}
{"target": "Serine/threonine-protein kinase D3 (PRKD3, Homo sapiens, UniProt O94806)", "remaining binding [%]": 92}
{"target": "Testis-specific serine/threonine-protein kinase 1 (TSSK1B, Homo sapiens, UniProt Q9BXA7)", "remaining binding [%]": 81}
{"target": "STE20-like serine/threonine-protein kinase (SLK, Homo sapiens, UniProt Q9H2G2)", "remaining binding [%]": 80}
{"target": "Serine/threonine-protein kinase N2 (PKN2, Homo sapiens, UniProt Q16513)", "remaining binding [%]": 78}
{"target": "Hepatocyte growth factor receptor (MET, Homo sapiens, UniProt P08581, Y1235D)", "remaining binding [%]": 94}
{"target": "Serine/threonine-protein kinase WNK4 (WNK4, Homo sapiens, UniProt Q96J92)", "remaining binding [%]": 80}
{"target": "ALK tyrosine kinase receptor (ALK, Homo sapiens, UniProt Q9UM73, L1196M)", "remaining binding [%]": 100}
{"target": "Mast/stem cell growth factor receptor Kit (KIT, Homo sapiens, UniProt P10721, D816H)", "remaining binding [%]": 61}
{"target": "Calcium/calmodulin-dependent protein kinase type II subunit alpha (CAMK2A, Homo sapiens, UniProt Q9UQM7)", "remaining binding [%]": 100}
{"target": "Epidermal growth factor receptor (EGFR, Homo sapiens, UniProt P00533, L858R)", "remaining binding [%]": 100}
{"target": "Mast/stem cell growth factor receptor Kit (KIT, Homo sapiens, UniProt P10721, D816V)", "remaining binding [%]": 100}
{"target": "Phosphatidylinositol 4,5-bisphosphate 3-kinase catalytic subunit alpha isoform (PIK3CA, Homo sapiens, UniProt P42336, E542K)", "remaining binding [%]": 100}
